Measurements gathered from unrelated publications.
Numbered parts are unrelated; each lists some results of a single study. “And” joins repeats or separate records; there may be more than shown.

Study 1
SMILES: CCN1/C(=C/C=C2\CCCC(/C=C/C3=[N+](CC)c4ccccc4C3(C)C)=C2NCCCCCCCCN2CCC(Nc3nc4ccccc4n3Cc3ccc(F)cc3)CC2)C(C)(C)c2ccccc21
Cell line: U-87 MG
Concentration: concentration not given
Relative to: DMSO
Quantity: log2 fold change
refers to: FHOD1 mRNA: -2.47
refers to: PABIR1 mRNA: 0.853
refers to: LAYN mRNA: -1.24
refers to: TFAP4 mRNA: -1.59
refers to: CEP152 mRNA: -1.25
refers to: NREP mRNA: -2.63
refers to: TULP4 mRNA: 0.805
refers to: HSPA2 mRNA: -1.25

Study 2
SMILES: COCC1CC2C(CCC3C(O)CCC32)c2ccc(O)cc21 (stereo not shown)
Quantity: mRNA level ratio
A549; DNA microarray, refers to: MCM10; 25 µM; relative to: untreated cells: 1.14
PANC-1; DNA microarray, refers to: KIF20A; 100 µM; relative to: untreated cells: 1.43 and 1.42 and 1.45 and 1.46
A549; DNA microarray, refers to: C6; 25 µM; relative to: untreated cells: 219
SK-OV-3; microarray, refers to: SPC25; 100 µM; relative to: untreated: 0.771
SK-OV-3; DNA microarray, refers to: GINS1; 25 µM; relative to: untreated cells: 0.925
PANC-1; DNA microarray, refers to: ACTB; 25 µM; relative to: untreated cells: 0.817 and 0.871 and 0.826 and 0.855 and 0.872
A549; DNA microarray, refers to: TMEM108; 25 µM; relative to: untreated cells: 2.65
A549; microarray, refers to: SPC25; 100 µM; relative to: untreated: 0.663

Study 3
SMILES: C=CC(=O)N1CCN(c2nc(OC[C@@H]3CCCN3C)nc3c2CCN(c2cccc4cccc(C)c24)C3)C[C@@H]1CC#N
Read-out: binding
Mode: competitor
Method: NanoBRET
Cell line: HEK293
Quantity: normalized BRET
KRAS G12D: GTPase KRas (KRAS, Homo sapiens, UniProt P01116, G12D)
KRAS G13D: GTPase KRas (KRAS, Homo sapiens, UniProt P01116, G13D)
HRAS: GTPase HRas (HRAS, Homo sapiens, UniProt P01112)
GTPase KRas (KRAS, Homo sapiens, UniProt P01116, Q61H); 3.05 nM: 98.9% and 89.2% and 94.9%
KRAS G12D; 153 pM: 106%
KRAS G13D; 82.2 nM: 88.9% and 86.2% and 94.8%
KRAS G12D; 156 nM: 108%
HRAS; 153 pM: 115%
HRAS; 156 nM: 118%
GTPase KRas (KRAS, Homo sapiens, UniProt P01116, Q61L); 9.14 nM: 91.8% and 93.8% and 93.5%
KRAS G13D; 3.05 nM: 85% and 95.3% and 87.7%

Further values, each from its own experiment
Cn1cc(-c2cccc(CN3CCC4(CC3)COc3c4ccc4c3CN([C@H]3CCC(=O)NC3=O)C4=O)c2)cn1  proliferating CD8+ Teff cells (human Treg:Teff co-culture; concentration not given, Treg suppression): 42.7% and 71% and 84.4% and 89.7% and 56.3% and 43.9% and 71.3%

For quick reference, copied from above (study 3):
HRAS; 153 pM: 115%
HRAS; 156 nM: 118%
